Assay results of several laboratories.
A part holds a random share of what one study measured.

Set 1
Target: RING finger protein unkempt homolog, zinc fingers 1-6, GST-SBP tag (UNK, Homo sapiens, UniProt Q9C0B0, residues 30-357)
Sequence of UniProt Q9C0B0 (30-357, looked up): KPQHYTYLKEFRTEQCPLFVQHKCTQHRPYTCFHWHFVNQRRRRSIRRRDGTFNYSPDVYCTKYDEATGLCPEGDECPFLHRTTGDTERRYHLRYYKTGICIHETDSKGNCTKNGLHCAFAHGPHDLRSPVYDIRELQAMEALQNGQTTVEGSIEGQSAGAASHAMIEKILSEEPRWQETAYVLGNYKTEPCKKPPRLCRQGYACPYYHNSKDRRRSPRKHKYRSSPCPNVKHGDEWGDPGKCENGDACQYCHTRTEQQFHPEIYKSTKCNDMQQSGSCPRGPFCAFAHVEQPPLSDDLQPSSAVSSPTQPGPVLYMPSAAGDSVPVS
Method: RNA Bind-n-Seq
Form: RNA
Matrix: in vitro
Concentration: not given
Setting: RNA with constant flanks, human-mouse chimeric sites, ends assumed
Reference: input RNA pool
Direction: higher = stronger binding
All sequences stand within: GGGAGUUCUACAGUCCGACGAUC … CAACAGAGGAUUGAGCAUCA
Strand | bound/input enrichment [ratio]
AAAGAGUGGAUAGAGUGUGCACACGGGAUCGGUGGGACCCGGGCGAAGAAAGAGUGCAAGAUAGAGUUCGAUGACUUCGAAGAGUGCUUGCUUCGGCACAAAACGAUGAGGCGAAUGCAU | 0.284
UACUACUAUGAUGGUGAUAUUGGCAAUUAUUAUUAUGGCCAGGGUCAUCCCAUGAAGCCUCAUAGAAUCCGCAUGACUCAUAACUUGCUGUUAAAUUAUGGUUUAUACCGAAAAAUGGAA | 0.147
ACUCAGAGAUCCACCUCAAUUGAAGUGGGGAGUAAAGGUGUGGCCACCACACCUAACUUGAUGGAUAUAUAUUUUUUUUAAUAUGAAUGAACUCUUGCGUCCAGGGAAGAAAGAUUUGUU | 0.337
AUGCAGUAUGAGACCAACAGCAUGGACUUCAAAGUUGGGGCAGAUGGGACAGUCUUCGCCACUAGGGAGCUGCAGGUCCCCUCCGAGCAGGUGGCGUUCACGGUGACUGCAUGGGACAGC | 0.205
AAACAUCUGUCUUUAAGCAUUCCAAGCGAGAAUGCUGGGGUGAUCAUUGUUGCCCAUGUGCCUUCUGACUGAGCUUUAAUGCUGUUCCAUGUUACAUCUUUCCUUCACUCCAGAAUUGUU | 0.162
AAAGCCCAAGUAUUUUGAAAAAACUCGAACAGAUUUGACAAGGGUAGCCAGCUUGGAGUCUAGCAACUUGCCAAUGUGUUUACCAAUUUUGGGGGCUGUUUUUCUUUCCCUUCCUUAAAU | 0.339
UUAAUCCCCUUUACUGCUCCCCCACUUGUCAUGCUGAUAACAAAGUCUUAUAUCCCCAUAUUAGCUUUCACUCAGAUGGCUUAUGGAGCCGGUUUCCUAGCUUUCUUGGGAGGGAUCAGA | 0.209
UAUAUCACCAAUGUCCUACAAAAUCCUGACUUGGCUCUGAGAAUGGCUGUGCGGAACAACUUAGCCGGUGCUGAAGAACUCUUUGCCCGGAAAUUUAAUGCUCUCUUCGCCCAGGGAAAC | 0.587

Set 2
Target: Prothrombin, mature alpha-thrombin (F2, Homo sapiens, UniProt P00734)
Method: aptamer microarray, sandwich
Form: DNA with 2'F-ANA
Matrix: in vitro
Concentration: 200 nM
Setting: whole 15-mer aptamer, many near background
Added: Cy3 exosite-II aptamer, 400 nM
Direction: higher = stronger binding
Strand: GGTTGGTGTGGTTGG
Modification | mean fluorescence intensity [a.u.]
2'F-ANA at 1 5 6 7 9 10 11 12 13 14 15 | 71.7
2'F-ANA at 1 4 6 13 15 | 80.2
2'F-ANA at 1 2 6 7 8 10 11 13 | 56.2
2'F-ANA at 1 2 3 4 5 6 9 11 13 14 15 | 51
2'F-ANA at 3 6 8 9 12 13 15 | 908
2'F-ANA at 1 2 3 5 8 9 10 11 13 14 | 88.9
2'F-ANA at 1 3 5 6 7 8 11 14 15 | 74
2'F-ANA at 1 3 4 5 6 7 11 15 | 53.7
2'F-ANA at 6 7 8 12 13 15 | 758
2'F-ANA at 2 3 6 7 8 11 12 13 | 798
2'F-ANA at 1 3 4 5 6 8 10 11 12 13 14 | 53
2'F-ANA at 2 3 4 8 9 12 | 898
2'F-ANA at 4 5 6 7 11 12 13 15 | 72.7
2'F-ANA at 3 4 5 8 11 | 91.7
2'F-ANA at 1 2 3 5 6 7 8 12 13 15 | 103
2'F-ANA at 3 5 7 11 13 | 96.5
2'F-ANA at 1 2 6 9 10 14 | 135
2'F-ANA at 1 2 3 5 8 13 15 | 56
2'F-ANA at 3 5 6 10 11 15 | 135
2'F-ANA at 2 4 5 6 8 10 11 14 | 60.8
2'F-ANA at 1 3 4 5 6 7 15 | 60.2

Set 3
Target: Sal-like protein 4, full length isoform B (SALL4, Homo sapiens, UniProt Q9UJQ4-2, residues 1-616)
Method: universal PBM
Form: double-stranded DNA, one strand shown
Matrix: in vitro
Concentration: not given
Setting: 8-mer, flanks averaged, mean of replicates
Direction: higher = stronger binding
Strand | E-score
GGCTAAGA | -0.129
GCCAACGC | -0.218
CTTACAAG | 0.0296
CAAAATGA | 0.256
CCCGAAAC | -0.165
AATTATTC | 0.394
AAATAGCT | 0.156
AGGAGACC | -0.232
AAAACAAT | 0.326
ACGCGGGC | -0.286
CATCCCGC | -0.23
CCTCTGGA | -0.172
CCGTCGAC | -0.237
AGGGGTTC | -0.301
GAGTGACC | -0.255
CAACCATC | -0.0755
GGCTACGA | -0.102
GAGATTGC | -0.114
CGAGTATA | 0.155
CCCCGGGA | -0.294
ACGTCTAA | 0.0996
AGCGTCGC | -0.185
ACTTACCT | 0.0249
TACGATAA | 0.325
ACGATAGA | 0.0816

Set 4
Target: RNA binding protein fox-1 homolog 2, RRM domain, GST-SBP tag (RBFOX2, Homo sapiens, UniProt O43251-10, residues 100-194)
Method: RNA Bind-n-Seq
Form: RNA
Matrix: in vitro
Concentration: 365 nM
Setting: natural RNA segment, single round, ends assumed
Reference: no-protein control
Direction: higher = stronger binding
All sequences stand within: GGGAGUUCUACAGUCCGACGAUC … UGGAAUUCUCGGGUGCCAA
Construct (chain): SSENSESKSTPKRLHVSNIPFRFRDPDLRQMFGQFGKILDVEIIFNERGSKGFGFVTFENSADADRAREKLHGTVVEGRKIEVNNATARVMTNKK
Strand | RBNS enrichment (R)
AAGUAACAAGGUGUCUUUUCCACUCCUAUGGAAAAGGGUCUUCUUGGCAGCUUAACAUUGACUUCUUGGUUUGGGGAGAAAUAAAUUUUGUUUCAGAAUUUUGUAUAUUG | 0.376
AAAAAUCUAUGAAGUUAAAAGAUCGUAGAAGCCAAAUGAAAUGUACAUAUCUACUGACUGAUGACAAGGGAAUUUCAUUAGGAAGAAGGUAAAGAAACAUCGUUGAGUAG | 0.428
UCUAAAGCCAUAGCUUUUGUUUUAUAUUGAGACAUAUAAUGUGUAAACUUAGUUCCCAAAUAAAUCAAUCCUGUCUUUCCCAUCUUCGAUGUUGCUAAUAUUAAGGCUUC | 0.315
GCACCUGAACCACUGUGGCCUUCUCAGCCUACAGCAGUGUGGUCUCUUACAUGGCCACAAAGGGACACACAGUGACAAAAGGCUCGGAAUGUUACAAUGGUAAAAUGAGU | 1.94
AAGCCUGGUCUCAUUUGCUUCCCUGCCAGGCUCAUCGUGUGUAUACCACAUUUGUGCCCCACUGACCUGAAGGUUCCAUGUAACUGUAUACACAUGAAUACUUAAAUGCC | 0.362
UUUGGUGAGCUUUCUCAGAGCCAUGGCUGCAGGCAUGUGAGCUGCGGGAACUUCCUCCUGAACUACCCAGGGCCUAAUCAUCCAGCACCUGUGUGUUGAGGUAGACUGGU | 1.89
GGCUGUUGACUGCGUAUGCCAAAAAGGGACAGGAGGCAUGGGAUAGCAGGUCUGGUGACACAGCUAGGGUCUUCCUAGCAGCUCCUCCUCCUCCCUCCCAAGGCCCCCAG | 0.664
GGAGAACUUGGUGUCUCACCCUGGGUACCCAUUCCUGGUGUAUGGAAGCACCUCCUUCACGGUCAGGGGGCCUGUGCUUGGCUUUCUGCCAUCAGACAUUAAGCUGUAGC | 0.233

A few entries again (set 4):
Strand | RBNS enrichment (R)
AAGUAACAAGGUGUCUUUUCCACUCCUAUGGAAAAGGGUCUUCUUGGCAGCUUAACAUUGACUUCUUGGUUUGGGGAGAAAUAAAUUUUGUUUCAGAAUUUUGUAUAUUG | 0.376
AAAAAUCUAUGAAGUUAAAAGAUCGUAGAAGCCAAAUGAAAUGUACAUAUCUACUGACUGAUGACAAGGGAAUUUCAUUAGGAAGAAGGUAAAGAAACAUCGUUGAGUAG | 0.428
UCUAAAGCCAUAGCUUUUGUUUUAUAUUGAGACAUAUAAUGUGUAAACUUAGUUCCCAAAUAAAUCAAUCCUGUCUUUCCCAUCUUCGAUGUUGCUAAUAUUAAGGCUUC | 0.315
GCACCUGAACCACUGUGGCCUUCUCAGCCUACAGCAGUGUGGUCUCUUACAUGGCCACAAAGGGACACACAGUGACAAAAGGCUCGGAAUGUUACAAUGGUAAAAUGAGU | 1.94
AAGCCUGGUCUCAUUUGCUUCCCUGCCAGGCUCAUCGUGUGUAUACCACAUUUGUGCCCCACUGACCUGAAGGUUCCAUGUAACUGUAUACACAUGAAUACUUAAAUGCC | 0.362
UUUGGUGAGCUUUCUCAGAGCCAUGGCUGCAGGCAUGUGAGCUGCGGGAACUUCCUCCUGAACUACCCAGGGCCUAAUCAUCCAGCACCUGUGUGUUGAGGUAGACUGGU | 1.89
